# Measured values of several laboratories.
# Sequences of proteins named here, by UniProt entry; tags and fusion partners are left off.
# UniProt Q16539, whole entry: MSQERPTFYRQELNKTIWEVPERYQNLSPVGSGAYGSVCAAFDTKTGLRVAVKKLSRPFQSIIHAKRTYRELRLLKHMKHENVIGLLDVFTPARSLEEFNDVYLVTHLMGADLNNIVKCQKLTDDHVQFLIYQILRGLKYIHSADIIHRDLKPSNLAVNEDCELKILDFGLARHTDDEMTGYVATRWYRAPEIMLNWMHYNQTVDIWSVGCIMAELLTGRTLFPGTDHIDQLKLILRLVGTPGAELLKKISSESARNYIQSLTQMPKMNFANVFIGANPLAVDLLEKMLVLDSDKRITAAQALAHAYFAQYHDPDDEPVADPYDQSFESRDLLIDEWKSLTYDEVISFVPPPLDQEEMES
# Protocols differ between the studies behind these lines. ± marks the error that the study gave.
Compound,target or system,assay,conditions,scale,endpoint,value
CC(C)C[C@H](NC(=O)[C@H](C)NC(=O)[C@H](CCCNC(=N)N)NC(=O)[C@H](CCCNC(=N)N)NC(=O)[C@H](CCCNC(=N)N)NC(=O)[C@H](C)NC(=O)[C@H](CC(C)C)NC(=O)[C@H](CCCNC(=N)N)NC(=O)[C@H](CO)NC(=O)[C@H](CCCCN)NC(=O)[C@H](CO)NC(=O)Cn1cc(COC(=O)[C@]2(C)C=C(C(=O)OC(C)(C)C)C(=O)CC2)nn1)C(=O)O,"Mitogen-activated protein kinase 14 (MAPK14, Homo sapiens, UniProt Q16539)","enzyme activity, inhibitor, D-SENSOR",0.2743 µM,,normalized kinase activity,0.595
CCN(CC)CCCC(C)Nc1cc(-c2ccccc2)nc2cc(OC)ccc12 (centres unmarked),MDA-MB-468,"cytotoxicity, MTT",96 h,,IC50,920 ± 64 nM
C=C(C)C(=O)Nc1ccc(-c2c(-c3ccc(Oc4nccc(C)n4)c(F)c3)c3c(N)ncnc3n2C)cc1,MFM-223,ubiquitin pulldown (TUBE1),"concentration not given, 6 h, together with: inavolisib",,p110α ubiquitination,inhibited
CC(C)CC(NC(=O)C(Cc1ccccc1)NC(=O)c1cnc(C(=O)NC(Cc2ccccc2)C(=O)NC(CC(C)C)B(O)O)cn1)B(O)O (centres unmarked),MM1.S,"cell invasion, Matrigel invasion",IC50,reference: untreated,inhibition,65.2%
Cc1c(Cn2c(C)nc3c(C(=O)O)cc(N4CCOCC4)cc32)cccc1C(F)(F)F,C4-2B enzalutamide-resistant,"no effect, Western blot",5 µM,,CDK6 protein level,no effect
N#Cc1c(-c2ccc(Cl)cc2Cl)n(-c2nc(-c3ccc(Cl)cc3)c3c(NC(=O)c4ccccc4)nnc-3[nH]2)[nH]c1=O,HCT-116,SRB,,,GI50,4300 nM
CN(C)CCNC(=O)c1cc([N+](=O)[O-])cc2ccc(-c3ccccc3)nc12,MDA-MB-468,protection from CB1954/NRH toxicity,"3 h, together with: 100 µM CB1954 plus 100 µM NRH",,IC50,510 ± 430 nM
CCOC(=O)c1c(-c2ccc(Cl)cc2Cl)n(-c2nc(-c3ccc(Cl)cc3)c3c(NC(=O)c4ccccc4)nnc-3[nH]2)[nH]c1=O,ACHN,SRB,10 µM,,cell growth,12.5%
CN(C)CCNC(=O)c1cccc2ccc(-c3ccc(-c4ccccc4)cc3)nc12,MDA-MB-468,"cytotoxicity, MTT",96 h,,IC50,1100 ± 720 nM
Cc1ccc(S(=O)(=O)Nc2ccccc2C(=O)Nc2nc(-c3ccccc3)cs2)cc1,GALT-deficient patient fibroblasts,refers to: 13C galactose 1-phosphate,"25 µM, 24 h pre-incubation, together with: 0.05% galactose for 4 h",reference: DMSO,decrease in galactose 1-phosphate,> 30%
CC/C=C\C/C=C\CCC/C=C/C=C/C=C\CCCC(=O)O,HL-60,flow cytometry,"12.5 µM, 24 h",,S phase cells,44.6%

# For quick reference, copied from above:
Compound,target or system,assay,conditions,scale,endpoint,value
Cc1ccc(S(=O)(=O)Nc2ccccc2C(=O)Nc2nc(-c3ccccc3)cs2)cc1,GALT-deficient patient fibroblasts,refers to: 13C galactose 1-phosphate,"25 µM, 24 h pre-incubation, together with: 0.05% galactose for 4 h",reference: DMSO,decrease in galactose 1-phosphate,> 30%
